Published values pooled from the literature.
± marks the error that the study gave.

| SMILES | cell line | assay | setting | scale | endpoint | result |
| --- | --- | --- | --- | --- | --- | --- |
| COc1ccc(C=C2SC(N3N=C(c4cccs4)CC3c3ccc(F)cc3)=NC2=O)cc1 (centres unmarked) | T47D | annexin V-FITC/PI flow cytometry | concentration not given |  | early apoptotic cells | 6.28% |
| C=C(C)[C@@H]1CC[C@]2(C(=O)OCO/N=[N+](\[O-])N3CCCC3)CC[C@]3(C)[C@H](CC[C@@H]4[C@@]5(C)CC[C@H](OC(C)=O)C(C)(C)[C@@H]5CC[C@]43C)[C@@H]12 | B16-F10 | PI flow cytometry | 0.25 µM |  | cells in G2 phase | 15.9% |
| CCC(C(=O)O)C1CCC(C)C(C(C)C(O)C(C)C(=O)C(CC)C2OC3(C=CC(NCc4cn(COC(=O)C(C)(C)C)nn4)C4(CCC(C)(C5CCC(O)(CC)C(C)O5)O4)O3)C(C)CC2C)O1 (centres unmarked) | HMLER | cell proliferation |  | reference: IC50 CD24high/CD44low over IC50 CD24low/CD44high | selectivity ratio | 3.1 |
| CC(=O)OC[C@H]1O[C@@H](Sc2sc(C(=O)c3ccc(C)cc3)c(N)c2-c2nc3ccccc3s2)[C@H](OC(C)=O)[C@@H](OC(C)=O)[C@@H]1OC(C)=O | UACC-257 | SRB | 10 µM, 48 h | reference: untreated | growth | 79.3% |
| COc1cc(CNC(=O)C[C@H](C)CCC=C(C)C)ccc1OCc1cn(-c2ccc(Br)cc2)nn1 | SN12C | SRB | 10 µM, 48 h |  | growth percent | 71.6% |
| O=Cc1c(O)ccc2ccccc12 | hCMEC/D3 | qPCR, item: KLF2 | 50 µM, 12 h | reference: control | mRNA level | ~2.3 fold |
| Cc1nn(-c2ccc(S(=O)(=O)N[C@H](CO)CC(C)C)cc2)c2nn3nnnc3nc12 | HT-29 | AO/EB staining | 2 µM, 24 h |  | apoptotic cells | 32.4 ± 3.75% |
| N=C(N/N=C/c1ccccn1)N/N=C/c1ccccn1 | PANC-1 | crystal violet | 72 h | reference: IC50 hTERT-HPNE over IC50 PANC-1 | selectivity ratio | 41.4 |
| FC(F)(F)c1ccnc(-c2cc(C(F)(F)F)ccn2)c1.FC(F)(F)c1ccnc(-c2cc(C(F)(F)F)ccn2)c1.[Cl-].[Cl-].[Ru+2].c1csc(-c2ccc(-c3ccc(-c4nc5c6cccnc6c6ncccc6c5[nH]4)s3)s2)c1 | SK-MEL-28 |  | hypoxia, with: visible light |  | phototherapeutic index | 170 |
| CC/C=C\C/C=C\C/C=C\C/C=C\C/C=C\C/C=C\CCC(=O)Nc1ccn(C2OC(CO)C(O)C2(F)F)c(=O)n1 (centres unmarked) | KM12 | cell growth or viability, SRB |  |  | GI50 | 1050 nM |
| COc1cc(CNC(=O)C[C@H](C)CCC=C(C)C)ccc1OCc1cn(-c2ccccc2Cl)nn1 | HOP-92 | SRB | 10 µM, 48 h |  | growth percent | 79.4% |
| CC(=C(c1ccc(O)cc1)c1ccc(Cl)cc1)c1ccc(Cl)cc1 | HOP-92 | cell growth or viability, SRB |  |  | GI50 | 460 nM |
| CCC(C)n1ncn(-c2ccc(N3CCN(c4ccc(OCC5COC(Cn6cncn6)(c6ccc(Cl)cc6Cl)O5)cc4)CC3)cc2)c1=O (centres unmarked) | hiPSC cardiac tissues 3D | active force | 15 min per concentration, paced at 1 Hz serum-free |  | minimum effective concentration | 3 µM |
| CCCCCCCCC/C=C/C=C/C(=O)N[C@H](C(=O)N[C@H]1C[C@@H](O)CCNC(=O)/C=C/[C@H](C)NC1=O)[C@@H](C)O | MDA-MB-361 | trypan blue cell counting | 2 days |  | antiproliferative concentration | 0.25 µM |
| COc1cc(CNC(=O)C[C@H](C)CCC=C(C)C)ccc1O | KM12 | SRB | 10 µM, 48 h |  | growth percent | 100% |
| CO[C@H]1N(OC)c2ccccc2[C@@]12CN=C(Nc1cc(C(F)(F)F)cc(C(F)(F)F)c1)S2 (relative stereo) | HCT-116 | PI flow cytometry | concentration not given, 72 h | reference: untreated | sub-G1 cells | 33.6 fold |
| COc1cc(CNC(=O)C[C@H](C)CCC=C(C)C)ccc1OCc1cn(-c2ccccc2[N+](=O)[O-])nn1 | NCI-H322M | SRB | 10 µM, 48 h |  | growth percent | 94.4% |
| COc1ccc2c(c1)/C(=N\Nc1nnc3n1N=C(c1ccccc1)CS3)C(=O)N2 | UACC-257 | cell growth or viability, SRB | 10 µM |  | inhibition | 35% |
| COc1cc(CNC(=O)C[C@H](C)CCC=C(C)C)ccc1OCc1cn(-c2ccccc2)nn1 | SK-MEL-5 melanoma cells | SRB | 10 µM, 48 h |  | growth percent | 77.4% |
| C=C1[C@H](O)CC(=C/C=C2\CCC[C@]3(C)[C@@H]([C@@H](C)CCCCO)CC[C@@H]23)C[C@H]1O | rat osteosarcoma cells | reporter gene, luciferase, item: CYP24A1 (24-hydroxylase) promoter |  | reference: compound over 1α,25-dihydroxyvitamin D3 | EC50 ratio | 2.5 |

Some of these lines once more:
| SMILES | cell line | assay | setting | scale | endpoint | result |
| --- | --- | --- | --- | --- | --- | --- |
| O=Cc1c(O)ccc2ccccc12 | hCMEC/D3 | qPCR, item: KLF2 | 50 µM, 12 h | reference: control | mRNA level | ~2.3 fold |
| N=C(N/N=C/c1ccccn1)N/N=C/c1ccccn1 | PANC-1 | crystal violet | 72 h | reference: IC50 hTERT-HPNE over IC50 PANC-1 | selectivity ratio | 41.4 |
